Experimental data from different studies.
Compare with care: the assays were run in different laboratories. ± marks the error that the study gave. ≈ marks a conversion by molar mass, not a printed value.

CP(=O)(O)CCC(N)C(=O)O (centres unmarked) — herbicidal activity (Echinochloa crus-galli; 500 g/ha, 13 days, post-emergence spray; reference: untreated (0%), complete kill (100%)): 100%
N#Cc1ccc(-c2ccc(-c3cccs3)o2)cc1F — mutant frequency (Salmonella enterica; TA1535; 20 µM, 48 h, together with: sodium azide after pre-exposure; reference: sodium azide alone): 21%
CN[C@@](C)(C[18F])C(=O)O — tracer uptake (A549 tumour model; host not given, kidney; 30 min, tumour-bearing): 15 %ID/g
O=C(N[C@H](Cc1ccccc1)C(=O)Nc1ccccc1N1CCOCC1)c1cccs1 — MIC90 (Mycobacteroides abscessus; microbial growth; ATCC19977): 6.25 to 12.5 µM (≈ 2.72 to 5.44 µg/mL)
CCCCCCCCCCCCCCCCCC(=O)N/N=C/c1ccccc1Cl — MIC (Aspergillus niger; microbial growth, broth dilution; 7 days): 51.3 µM
CC(=O)N[C@H]1[C@H]([C@H](O)[C@H](O)CO)OC(C(=O)O)=C[C@@H]1N=C(N)N — antiviral activity (human respiratory syncytial virus; BEAS-2B, A2-L19F-renilla; concentration not given): inactive
N#Cc1ccc(-c2ccc(-c3ccco3)o2)cc1F — mutant frequency (Salmonella enterica; TA1535; 10 µM, 48 h, together with: sodium azide co-exposure; reference: sodium azide alone): 25%
O=Cc1cn(Cc2ccc(F)cc2)c2ccc([N+](=O)[O-])cc12 — IC50 (Leishmania donovani; parasite growth, resazurin; THP-1; 24 h, intracellular, amastigote): > 10 µM
C[C@H]1N[C@@H](CCCCCCCCCCC2=C[C@@H](CCCCCCCCCC[C@H]3CC[C@@H](O)[C@@H](C)N3)[C@@H]3CCCN3C2)CC[C@H]1O — IC90 (Leishmania donovani; parasite growth; THP-1; intracellular, amastigote): 1.34 µg/mL
N=C(N)c1ccc(OCCCCCOc2ccc(C(=N)N)cc2)cc1 — responders (Trypanosoma brucei rhodesiense; STIB900, mouse; intraperitoneal, 5 mg/kg, 1440 h): 50%
O=c1cc(-c2ccc3c(c2)OCO3)[nH]c2ccccc12 — antiviral activity (human rhinovirus 2; cytopathic effect; HeLa; concentration not given, 72 h, non-cytotoxic concentrations): inactive
O=Cc1cn(Cc2ccccc2)c2ccc([N+](=O)[O-])cc12 — IC50 (Leishmania donovani; parasite growth, resazurin; THP-1; 72 h, intracellular, amastigote): 3.57 µM
CCCCCCCCCCCCCC(=O)N/N=C/c1ccccc1 — MIC (Staphylococcus aureus, Bacillus subtilis, Escherichia coli; bacterial growth; 24 h): 39.8 µM
N=C(N)c1ccc(-c2ccc(-c3cccs3)o2)c(F)c1 — mutant frequency (Salmonella enterica; TA1535; 20 µM, 48 h, together with: sodium azide co-exposure; reference: sodium azide alone): 18%
Cc1ccc(C(=O)N/N=C/c2ccccc2Cl)cc1 — MIC (Aspergillus niger; microbial growth, broth dilution; 7 days): 24.5 µM
CC(C)C[C@H](NC(=O)[C@H](C)NC(=O)[C@H](CC(C)C)NC(=O)[C@H](CCCCN)NC(=O)[C@H](CCCCN)NC(=O)[C@H](Cc1c[nH]c2ccccc12)NC(=O)[C@H](CC(C)C)NC(=O)[C@H](CC(C)C)NC(=O)[C@H](C)NC(=O)[C@H](CC(C)C)NC(=O)[C@H](CCCCN)NC(=O)[C@H](CCCCN)NC(=O)[C@@H]1CCCN1C(=O)[C@H](C)NC(=O)[C@H](CC(C)C)NC(=O)[C@H](C)NC(=O)[C@H](CC(C)C)NC(=O)[C@H](CCCCN)NC(=O)[C@@H](N)CCCCN)C(=O)N[C@@H](C)C(=O)N[C@@H](CC(C)C)C(=O)N[C@@H](CCCCN)C(=O)N[C@@H](CCCCN)C(=O)N[C@@H](C)C(N)=O — MIC50 (Escherichia coli; broth microdilution; TOP10; overnight, 37 °C): 0.45 ± 0.1 µM (≈ 1.2 µg/mL)
C/C=C/C=C/C(=O)N/N=C/c1ccccc1 — MIC (Staphylococcus aureus, Bacillus subtilis, Escherichia coli; bacterial growth; 24 h): 58.9 µM
C/C(=C\Cc1c(O)c(Cl)c(C)c(C=O)c1O)CC/C=C(\C)[C@@H]1CC(=O)C(C)(C)O1 — IC50 (Wickerhamomyces anomalus; O2 uptake, inhibitor; mitochondria; together with: glycerol 3-phosphate 20 mM): 36.5 µM
C/C=C(C)/C=C/C=C/[C@H](OC)[C@@H](C)[C@@H](OC)[C@@H](C)CCc1oc2c(O)c(OC)cc(OC)c2c(=O)c1C — lowest effective concentration (Zymoseptoria tritici; disease control, glasshouse foliar spray; Triticum aestivum; disease control 100%): > 180 µM
NCC[C@H](O)C(=O)N[C@@H]1C[C@H](N)[C@@H](O[C@H]2O[C@H](CN)[C@@H](O)[C@H](O)[C@H]2O)[C@H](O)[C@H]1O[C@H]1O[C@H](CO)[C@@H](O)[C@H](N)[C@H]1O — MIC (Mycobacteroides abscessus; ATCC 19977 ∆whiB7; 120 h): 0.25 µg/mL
O=C(N/N=C/c1ccccc1Cl)c1cc([N+](=O)[O-])cc([N+](=O)[O-])c1 — MIC (Aspergillus niger; microbial growth, broth dilution; 7 days): 25.1 µM
Nc1ccn([C@@H]2CS[C@H](CO)O2)c(=O)n1 — EC90 (hepatitis B virus; viral replication; HepG2.2.15): 0.14 ± 0.011 µM
N=C(N)c1ccc(-c2ccc(-c3cccs3)o2)cc1F — mutant frequency (Salmonella enterica; TA1535; 10 µM, 48 h, together with: sodium azide co-exposure; reference: sodium azide alone): 29%
CC(=O)OCC(CCn1cnc2cnc(N)nc21)COC(C)=O — LC50 (Aedes aegypti; third instar larvae): 240 µg/mL (≈ 747 µM)
C[C@@H]1[C@H](O)[C@@H](C)/C=C/C=C/C=C/C=C/C=C/C=C/C=C/[C@H](O[C@@H]2O[C@H](C)[C@@H](O)[C@H](N)[C@@H]2O)C[C@@H]2O[C@](O)(C[C@@H](O)C[C@@H](O)[C@H](O)CC[C@@H](O)C[C@@H](O)CC(=O)O[C@H]1C)C[C@H](O)[C@H]2C(=O)O — LD50 (Leishmania amazonensis; intracellular amastigotes; 72 h, washout): 82 ± 7.1 nM
COc1cc(C(=O)NS(=O)(=O)c2ccccc2C)ccc1Cc1cn(C)c2ccc(NC(=O)OC3CCCC3)cc12 — IC90 (dengue virus type 2 New Guinea C; viral yield; single-cycle yield reduction): 7 ± 2.8 µM
c1ccc(CN2CCN3CCCN(CC2)CCN(Cc2ccccc2)CC3)cc1 — IC90 (Leishmania donovani; parasite growth, resazurin; 72 h, promastigote): > 20 µM
STFFRLFNRSFTQGRRRRSVQWCA — biofilm growth (Streptococcus mutans; OD600; peptide, UA159, 4 h single-species biofilm; 128 µg/ml, 5 min exposure, OD600 read over 5 h): decreased
C[C@H](Cn1cnc2c(N)ncnc21)OCP(=O)(O)O — inhibition (human alphaherpesvirus 2; virus production, plaque reduction; human monocytes/macrophages; 1 µg/mL, 6 days): 27%
N#Cc1ccc(-c2ccc(-c3cccs3)s2)cc1F — inhibition (Salmonella enterica; sodium azide mutagenicity; TA1535; 20 µM, 48 h, together with: sodium azide 2 µg/plate after pre-exposure): 107%
C=CC1=C(C)/C(=C/c2[nH]c(Cc3[nH]c(/C=C4\NC(=O)C(C)=C4C=C)c(C)c3CCC(=O)O)c(CCC(=O)O)c2C)NC1=O — lowest effective concentration (hepatitis C virus; viral replication, RT-PCR; Huh7.5 full-length Con1 replicon; 48 h): 200 µM
Nc1cc2nc[nH]c2c(=O)[nH]1 — EC90 (Enterovirus D68; RD, US/KY/14-18953; 72 h): 8 ± 1.1 µM
N=C(N)c1ccc(-c2ccc(-c3ccco3)o2)cc1F — inhibition (Salmonella enterica; sodium azide mutagenicity; TA1535; 10 µM, 48 h, together with: sodium azide 2 µg/plate co-exposure): 103%
CN(Cc1cnc2nc(N)nc(N)c2n1)c1ccc(C(=O)N[C@@H](CCC(=O)O)C(=O)O)cc1 — ED50 (Trypanosoma brucei brucei; Alamar blue; Lister 427 bloodstream form; concentration not given, 10% fetal calf serum): 2.7 ± 0.1 µM
N#Cc1ccc(-c2ccc(-c3ccco3)o2)c(F)c1 — mutant frequency (Salmonella enterica; TA1535; 20 µM, 48 h, together with: sodium azide after pre-exposure; reference: sodium azide alone): 20%
CN1CCN2CCN(CC1)CCN(Cc1ccccc1)CC2 — IC90 (Leishmania donovani; parasite growth, resazurin; 72 h, amastigote): > 20 µM
O=C1CCc2ccc(OCCCCN3CCN(c4cccc(Cl)c4Cl)CC3)cc2N1 — pseudovirus entry (coronavirus spike pseudovirus; luciferase reporter; ACE2-high cells; 20 µM, unit not given; reference: untreated): 0.18 ± 0.01
N#Cc1ccc(-c2ccc(-c3cccs3)o2)c(F)c1 — inhibition (Salmonella enterica; sodium azide mutagenicity; TA1535; 10 µM, 48 h, together with: sodium azide 2 µg/plate after pre-exposure): 80%

Some of these lines once more:
C[C@H]1N[C@@H](CCCCCCCCCCC2=C[C@@H](CCCCCCCCCC[C@H]3CC[C@@H](O)[C@@H](C)N3)[C@@H]3CCCN3C2)CC[C@H]1O — IC90 (Leishmania donovani; parasite growth; THP-1; intracellular, amastigote): 1.34 µg/mL
N=C(N)c1ccc(OCCCCCOc2ccc(C(=N)N)cc2)cc1 — responders (Trypanosoma brucei rhodesiense; STIB900, mouse; intraperitoneal, 5 mg/kg, 1440 h): 50%
O=c1cc(-c2ccc3c(c2)OCO3)[nH]c2ccccc12 — antiviral activity (human rhinovirus 2; cytopathic effect; HeLa; concentration not given, 72 h, non-cytotoxic concentrations): inactive
O=Cc1cn(Cc2ccccc2)c2ccc([N+](=O)[O-])cc12 — IC50 (Leishmania donovani; parasite growth, resazurin; THP-1; 72 h, intracellular, amastigote): 3.57 µM
CCCCCCCCCCCCCC(=O)N/N=C/c1ccccc1 — MIC (Staphylococcus aureus, Bacillus subtilis, Escherichia coli; bacterial growth; 24 h): 39.8 µM
N=C(N)c1ccc(-c2ccc(-c3cccs3)o2)c(F)c1 — mutant frequency (Salmonella enterica; TA1535; 20 µM, 48 h, together with: sodium azide co-exposure; reference: sodium azide alone): 18%
